Published values collected from several papers.
Parts stem from different laboratories: compare values within a part only. Several values in a cell are separate wells, animals, samples, runs or records.
UniProt P78356, sequence (whole entry, looked up): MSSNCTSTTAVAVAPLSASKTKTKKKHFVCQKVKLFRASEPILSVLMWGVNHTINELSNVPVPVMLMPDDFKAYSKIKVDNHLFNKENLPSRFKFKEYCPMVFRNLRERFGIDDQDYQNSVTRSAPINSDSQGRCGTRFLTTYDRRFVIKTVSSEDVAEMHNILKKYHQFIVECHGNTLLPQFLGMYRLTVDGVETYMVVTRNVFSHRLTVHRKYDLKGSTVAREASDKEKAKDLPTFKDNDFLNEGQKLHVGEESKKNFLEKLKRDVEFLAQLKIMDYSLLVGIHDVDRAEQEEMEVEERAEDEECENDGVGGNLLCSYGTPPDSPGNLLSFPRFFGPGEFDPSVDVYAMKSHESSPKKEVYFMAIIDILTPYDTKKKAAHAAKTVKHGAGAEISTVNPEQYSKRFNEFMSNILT
UniProt O94921, sequence (whole entry, looked up): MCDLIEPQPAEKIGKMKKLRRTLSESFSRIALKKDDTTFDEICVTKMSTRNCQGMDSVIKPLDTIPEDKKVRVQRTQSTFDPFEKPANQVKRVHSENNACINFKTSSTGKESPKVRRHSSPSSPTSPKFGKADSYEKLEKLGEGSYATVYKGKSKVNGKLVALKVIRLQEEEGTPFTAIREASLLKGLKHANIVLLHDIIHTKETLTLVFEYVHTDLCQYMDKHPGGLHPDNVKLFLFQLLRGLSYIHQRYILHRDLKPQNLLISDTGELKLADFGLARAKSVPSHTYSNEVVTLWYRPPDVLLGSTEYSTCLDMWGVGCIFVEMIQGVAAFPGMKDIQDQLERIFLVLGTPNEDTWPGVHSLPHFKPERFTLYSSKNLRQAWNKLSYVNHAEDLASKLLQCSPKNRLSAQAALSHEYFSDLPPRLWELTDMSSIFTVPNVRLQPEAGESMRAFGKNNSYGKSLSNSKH
UniProt P57059, sequence (whole entry, looked up): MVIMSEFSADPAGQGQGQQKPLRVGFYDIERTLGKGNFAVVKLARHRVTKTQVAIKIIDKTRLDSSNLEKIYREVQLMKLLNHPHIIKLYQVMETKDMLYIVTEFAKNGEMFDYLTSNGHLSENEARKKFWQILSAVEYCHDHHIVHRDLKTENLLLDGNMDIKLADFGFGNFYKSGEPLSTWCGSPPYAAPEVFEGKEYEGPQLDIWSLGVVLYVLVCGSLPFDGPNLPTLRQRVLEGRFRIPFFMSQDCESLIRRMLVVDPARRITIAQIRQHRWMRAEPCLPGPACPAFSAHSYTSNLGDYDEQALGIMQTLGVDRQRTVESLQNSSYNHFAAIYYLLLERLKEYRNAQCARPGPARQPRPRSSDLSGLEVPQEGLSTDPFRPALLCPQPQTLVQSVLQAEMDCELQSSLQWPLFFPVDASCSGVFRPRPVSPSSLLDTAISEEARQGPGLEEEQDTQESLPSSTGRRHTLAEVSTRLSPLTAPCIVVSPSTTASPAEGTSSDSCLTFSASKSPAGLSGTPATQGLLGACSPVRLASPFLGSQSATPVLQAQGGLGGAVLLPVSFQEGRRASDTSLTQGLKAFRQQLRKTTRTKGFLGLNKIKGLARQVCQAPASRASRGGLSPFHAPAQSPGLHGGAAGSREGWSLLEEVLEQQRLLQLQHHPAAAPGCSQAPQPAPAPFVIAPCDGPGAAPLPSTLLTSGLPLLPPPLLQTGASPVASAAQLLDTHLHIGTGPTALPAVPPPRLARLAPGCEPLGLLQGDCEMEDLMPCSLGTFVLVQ
UniProt O14965, sequence (whole entry, looked up): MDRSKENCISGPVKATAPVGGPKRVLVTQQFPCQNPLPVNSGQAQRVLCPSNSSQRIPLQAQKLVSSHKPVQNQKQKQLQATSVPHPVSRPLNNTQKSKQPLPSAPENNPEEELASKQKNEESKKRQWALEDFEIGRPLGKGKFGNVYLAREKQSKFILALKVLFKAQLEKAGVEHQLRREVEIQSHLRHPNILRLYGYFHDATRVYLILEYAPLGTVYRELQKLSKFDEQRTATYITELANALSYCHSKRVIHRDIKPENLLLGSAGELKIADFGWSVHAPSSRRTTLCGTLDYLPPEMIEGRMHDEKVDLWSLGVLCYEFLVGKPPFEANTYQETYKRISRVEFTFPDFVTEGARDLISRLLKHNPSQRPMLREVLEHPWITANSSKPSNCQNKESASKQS
UniProt Q96GD4, sequence (whole entry, looked up): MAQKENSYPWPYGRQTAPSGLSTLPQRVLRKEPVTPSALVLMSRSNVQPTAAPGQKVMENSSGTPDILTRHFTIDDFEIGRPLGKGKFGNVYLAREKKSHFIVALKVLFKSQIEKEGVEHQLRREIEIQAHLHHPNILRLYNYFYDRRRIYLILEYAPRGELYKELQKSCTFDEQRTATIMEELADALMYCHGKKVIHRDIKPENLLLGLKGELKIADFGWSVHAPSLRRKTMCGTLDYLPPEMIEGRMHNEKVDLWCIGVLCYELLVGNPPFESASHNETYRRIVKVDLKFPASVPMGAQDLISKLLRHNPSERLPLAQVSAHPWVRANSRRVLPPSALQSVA

Study 1
SMILES: Cc1cc(-n2nc(Cc3cc(F)cc(C(F)(F)F)c3)nc2C)ccc1C(N)=O
Tested at: 1 µM
Quantity: remaining binding
Cyclin-dependent kinase 14 (CDK14, Homo sapiens, UniProt O94921); cell-free assay, competition with immobilised ligand: 100%
Aurora kinase B (AURKB, Homo sapiens, UniProt Q96GD4); cell-free assay, competition with immobilised ligand: 87%
Tyrosine-protein kinase ABL1, phosphorylated (ABL1, Homo sapiens, UniProt P00519); cell-free assay, competition with immobilised ligand: 100%
Serine/threonine-protein kinase SIK1 (SIK1, Homo sapiens, UniProt P57059); competition binding: 100%
Phosphatidylinositol 5-phosphate 4-kinase type-2 beta (PIP4K2B, Homo sapiens, UniProt P78356); cell-free assay, competition with immobilised ligand: 100%
Receptor-type tyrosine-protein kinase FLT3 (FLT3, Homo sapiens, UniProt P36888, ITD); cell-free assay, competition with immobilised ligand: 100%
Tyrosine-protein kinase ABL1, phosphorylated (ABL1, Homo sapiens, UniProt P00519, Y253F); cell-free assay, competition with immobilised ligand: 90%
Aurora kinase A (AURKA, Homo sapiens, UniProt O14965); cell-free assay, competition with immobilised ligand: 99%
Calcium/calmodulin-dependent protein kinase type II subunit delta (CAMK2D, Homo sapiens, UniProt Q13557); cell-free assay, competition with immobilised ligand: 100%

Study 2
Method: PRP chromatography estimate
Medium: 1,9-decadiene/PBS
pH: 7.4
Quantity: logD
CC(C)C[C@@H]1NC(=O)[C@H](CC(C)C)NC(=O)[C@@H](CC(C)C)NC(=O)[C@H](CC(C)C)NC(=O)[C@@H](CCC(=O)N2CCCC2)NC(=O)[C@H](C)NC(=O)[C@H](C)NC1=O: -1.95
CC(C)C[C@@H]1NC(=O)[C@@H](C)NC(=O)[C@H](CCC(=O)N2CCCC2)NC(=O)[C@H](C)NC(=O)[C@H](C(C)C)NC(=O)[C@H](CC(C)C)NC(=O)[C@@H](CC(C)C)NC1=O: -2.32
CC(C)C[C@@H]1NC(=O)[C@@H](C)NC(=O)[C@@H](CC(C)C)NC(=O)[C@@H](CC(C)C)NC(=O)[C@H](C(C)C)NC(=O)[C@H](CC(C)C)NC(=O)[C@@H](CC(C)C)NC1=O: 0.618
CC(C)C[C@@H]1NC(=O)[C@H](C)NC(=O)[C@H](C)NC(=O)[C@H](C)NC(=O)[C@H](C(C)C)NC(=O)[C@H](CC(C)C)NC(=O)[C@@H](CC(C)C)NC1=O: -2.59
CC(C)C[C@@H]1NC(=O)[C@H](CC(C)C)NC(=O)[C@@H](CC(C)C)NC(=O)[C@H](CC(C)C)NC(=O)[C@H](C(C)C)NC(=O)[C@H](C)NC(=O)[C@H](C)NC1=O: -0.7
CC(C)C[C@@H]1NC(=O)[C@H](C(C)C)NC(=O)[C@H](C)NC(=O)[C@H](CCC(=O)N2CCCC2)NC(=O)[C@@H](CCC(=O)N2CCCC2)NC(=O)[C@H](CC(C)C)NC(=O)[C@@H](CC(C)C)NC1=O: -2.43

Study 3
Target: Homeodomain-interacting protein kinase 2 (HIPK2, Homo sapiens, UniProt Q9H2X6)
UniProt Q9H2X6, sequence (whole entry, looked up): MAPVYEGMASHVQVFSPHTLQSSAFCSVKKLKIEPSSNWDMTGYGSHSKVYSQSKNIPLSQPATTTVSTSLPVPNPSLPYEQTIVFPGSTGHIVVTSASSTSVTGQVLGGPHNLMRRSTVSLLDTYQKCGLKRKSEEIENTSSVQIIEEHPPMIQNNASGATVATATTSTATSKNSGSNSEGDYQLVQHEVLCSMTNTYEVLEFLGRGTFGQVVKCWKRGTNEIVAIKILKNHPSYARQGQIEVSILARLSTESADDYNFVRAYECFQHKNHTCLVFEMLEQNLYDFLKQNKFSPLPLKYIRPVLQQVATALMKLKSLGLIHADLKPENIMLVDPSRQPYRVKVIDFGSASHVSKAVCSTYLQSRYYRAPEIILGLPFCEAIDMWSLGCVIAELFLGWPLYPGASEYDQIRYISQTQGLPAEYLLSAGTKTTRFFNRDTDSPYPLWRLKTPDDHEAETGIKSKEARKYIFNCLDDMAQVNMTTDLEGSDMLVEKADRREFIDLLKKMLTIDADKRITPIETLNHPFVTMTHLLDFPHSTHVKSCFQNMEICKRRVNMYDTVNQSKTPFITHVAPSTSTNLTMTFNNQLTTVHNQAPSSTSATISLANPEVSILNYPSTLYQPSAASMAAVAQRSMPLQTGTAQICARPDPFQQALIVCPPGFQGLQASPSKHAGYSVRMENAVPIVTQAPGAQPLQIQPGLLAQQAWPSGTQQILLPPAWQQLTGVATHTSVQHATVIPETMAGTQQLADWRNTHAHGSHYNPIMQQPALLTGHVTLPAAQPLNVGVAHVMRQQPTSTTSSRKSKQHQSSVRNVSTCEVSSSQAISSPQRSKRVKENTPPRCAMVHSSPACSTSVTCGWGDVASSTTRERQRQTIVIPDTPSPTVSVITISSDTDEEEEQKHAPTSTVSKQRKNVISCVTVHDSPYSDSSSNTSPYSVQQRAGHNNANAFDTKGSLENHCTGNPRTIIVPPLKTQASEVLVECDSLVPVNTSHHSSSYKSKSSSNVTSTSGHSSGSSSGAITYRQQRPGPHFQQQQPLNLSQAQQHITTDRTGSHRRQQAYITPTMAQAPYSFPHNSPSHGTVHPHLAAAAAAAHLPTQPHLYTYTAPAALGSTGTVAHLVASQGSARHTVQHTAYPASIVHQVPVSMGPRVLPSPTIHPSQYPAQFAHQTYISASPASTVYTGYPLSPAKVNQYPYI
Read-out: enzyme activity
Mode: inhibitor
Tested at: 0.5 µM
Baseline: control
Quantity: remaining activity
O=C(Nc1cccc(Nc2nccc(Nc3cccc(C(F)(F)F)c3)n2)c1)C1CC1: 103%
COc1cc2ncnc(Nc3cccc(Cl)c3)c2cc1OC: 88.8%
Cc1cn(-c2cc(NC(=O)c3ccc(C)c(Nc4nccc(-c5cccnc5)n4)c3)cc(C(F)(F)F)c2)cn1: 92.1%
Cc1nc2cc3nc(-c4cccs4)cnc3cc2n1C: 107%
O=C1c2ccccc2-c2n[nH]c3cccc1c23: 97.7%
COc1cc2ncnc(Nc3ccc(O)c(Br)c3)c2cc1OC: 102%
CCN(CC)CCNC(=O)c1c(C)[nH]c(/C=C2\C(=O)Nc3ccc(Cl)cc32)c1C: 20%
O=C1C(Cl)=C(N2C(=O)CCC2=O)C(=O)c2ccccc21: 104%
O=C(NC(NC(=S)Nc1ccc(F)c([N+](=O)[O-])c1)C(Cl)(Cl)Cl)C(c1ccccc1)c1ccccc1 (stereo not drawn): 118%
Cn1nc2c3c(cccc31)C(=O)c1ccccc1-2: 105%
Cc1cc2ncc(-c3ccccc3)nc2cc1C: 97%
C[C@@H]1CCN(C(=O)CC#N)C[C@@H]1N(C)c1ncnc2[nH]ccc12: 96.9%
CN(C)C[C@H]1CCn2c(c(C3=C(c4cn(C)c5ccccc45)C(=O)NC3=O)c3ccccc32)C1: 94.1%
Ic1cccc(CSc2nnc(-c3ccncc3)o2)c1: 102%
CCN(CC)CCNC(=O)c1c(C)[nH]c(/C=C2\C(=O)Nc3ccc(F)cc32)c1C: 41.3%
CN([C@@H](Cc1ccc(OS(=O)(=O)c2cccc3cnccc23)cc1)C(=O)N1CCN(c2ccccc2)CC1)S(=O)(=O)c1cccc2cnccc12: 109%
O=c1cc(-c2cccc3c2Sc2ccccc2S3)oc(N2CCOCC2)c1: 105%
CCN(CC)C(=O)c1ccc(Nc2nc(OCC3CCCCC3)c3[nH]cnc3n2)cc1: 92.4%
c1ccc(-c2[nH]ncc2-c2ccnc3ccccc23)nc1: 91.3%
COc1cc2c(cc1OC)-c1[nH]nc(Nc3cccc(F)c3)c1C2: 103%
c1ccc(-c2cnc(Nc3ccc(OCCN4CCCC4)cc3)s2)cc1: 97.5%

Study 4
Cell line: mouse MPNST tumor cells
Method: high-content immunofluorescence imaging
Refers to: nuclear SOX9
Tested at: 10 µM
Time: 12 h
Notes: mean of 2 replicates
Baseline: DMSO control
Direction: higher = more nuclear SOX9
Quantity: nuclear SOX9 intensity
CC(C)C(=O)OCC(=O)[C@@]12O[C@H](C3CCCCC3)O[C@@H]1C[C@H]1[C@@H]3CCC4=CC(=O)C=C[C@]4(C)[C@H]3[C@@H](O)C[C@@]12C: 93.7 % of DMSO
CCN(CC)CCCC(C)Nc1nc(C)cc(Nc2ccc3nc(C)cc(N)c3c2)n1 (stereo not drawn): 99.7 % of DMSO
CC(=Cc1ccc(Cl)cc1)C(C)=NO: 99.9 % of DMSO
O=C(O)Cc1ccc(-c2ccccc2)cc1: 96.5 % of DMSO
CCOC(=O)COc1ccc2c(c1)C[C@@H](NC[C@H](O)c1cccc(Cl)c1)CC2: 103 % of DMSO

Other studies, line by line
C[C@@H]1CN(c2ccc(-c3cc(C(=O)NCCOCCOCCOCCOCCNC(=O)/C=C/c4[nH]cc(C(=O)N[C@@H](CC(N)=O)c5ccc(F)c(Cl)c5)c4-c4ccc(Cl)cc4F)ccc3F)cc2NC(=O)c2c[nH]c(=O)cc2C(F)(F)F)C[C@H](C)N1C
viability (MV4-11 expressing HiBiT-WDR5; ATPlite; RPMI with 10% FBS; 88.1 nM, 24 h): 106% and 96.2% and 111%

Repeated from above (study 3):
CN(C)C[C@H]1CCn2c(c(C3=C(c4cn(C)c5ccccc45)C(=O)NC3=O)c3ccccc32)C1: 94.1%
Ic1cccc(CSc2nnc(-c3ccncc3)o2)c1: 102%
CCN(CC)CCNC(=O)c1c(C)[nH]c(/C=C2\C(=O)Nc3ccc(F)cc32)c1C: 41.3%
